Published values gathered from unrelated publications.
Every numbered part comes from another study and shows a few of its results, in no order.

Series 1 — technique: competition protein-binding microarray; molecule type: double-stranded DNA, one strand shown; sample: in vitro; tested at: 2 µM; together with: Cbf1 competitor, 0.05 µM; direction: higher = stronger binding; shared flanks, not repeated: … GTCTTGATTCGCTTGACGCTGCTG
Target: Phosphate system positive regulatory protein PHO4, full length, GST-tagged (PHO4, Saccharomyces cerevisiae, UniProt P07270, residues 1-312)
Notes: whole 60-bp probe, lowest competitor level
Construct (chain): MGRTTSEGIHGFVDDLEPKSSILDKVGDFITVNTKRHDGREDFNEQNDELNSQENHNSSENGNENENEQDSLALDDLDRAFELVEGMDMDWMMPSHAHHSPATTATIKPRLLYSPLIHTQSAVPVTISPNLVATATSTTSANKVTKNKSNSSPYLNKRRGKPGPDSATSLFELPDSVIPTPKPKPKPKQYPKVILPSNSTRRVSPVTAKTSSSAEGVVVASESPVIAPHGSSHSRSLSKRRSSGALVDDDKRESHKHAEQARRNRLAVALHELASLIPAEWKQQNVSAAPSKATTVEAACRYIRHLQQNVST
| Strand | fluorescence intensity [a.u.] |
| --- | --- |
| CTTTTCCTTGTTATCCTCGTGTGTTAAATAGATAAT | 11400 |
| AGTCACTATGATGAGGATAATACCATGAAGAAAAAT | 4270 |
| TATATATGCATTCACCACGTTCCCGTTAGTCAAACG | 12600 |
| GAACTACGCTACTACGTCGTGGGTATTCTGGAGAAG | 7280 |
| AAATTACTAAGTTGTCACTTTACTTACCCCGTATGA | 3100 |
| CTTCTGTAAATTTGTCACACTACTTGACGCGCCCCG | 4700 |
| CGATTTCAGAATCACCACGGGATTGCCAACCCAACA | 6680 |
| CTTGGAATCAACTTGGTCATGACAACACCAGCAGTT | 3790 |
| AAATTACTAAGTTGTACCGTGGGTGACGCCGTATGA | 5910 |
| GCGTTGCAGATCGCTCAGCTGACTTTGAAGCATCGC | 2600 |
| AAATTACTAAGTTACCACGTGTTTTACCCCGTATGA | 20000 |
| CACTTCACCAAACACAACGTGCTTTCCGTCCAAATG | 16700 |
| CTAGATGTCAAAAGGCTTGTGACAGTATGTGGAGAA | 4640 |
| CCGGTGTTACCCAAGCTCGTGTTTTCACTGGTAACA | 9990 |
| CGTCCTAGTGATTTTCACGTGGCGTCCATGAGGAAG | 14900 |
| GAAAAAAGAAATGGACACGTGTAGGTCAAGGCATTA | 15600 |
| CCGTCTTAGCACCCGCACACGCAGACGCAGCGCTCA | 8350 |
| GGTTTTCGATTGGGCCTCGTGATGGAACACATCAGC | 9260 |
| CTTTCCCGATCTTGATTCGTGGGTGTAGCACATTTG | 6240 |

Series 2 — technique: RNA Bind-n-Seq; molecule type: RNA; sample: in vitro; tested at: 200 nM; notes: whole 134-nt RNA, ends assumed; together with: 150 mM LiCl; baseline: input library; direction: higher = stronger binding; each molecule: 7-deaza-guanosine replaces G
Target: Ras GTPase-activating protein-binding protein 1, full length (G3BP1, Homo sapiens, UniProt Q13283)
UniProt Q13283, sequence (whole entry, looked up): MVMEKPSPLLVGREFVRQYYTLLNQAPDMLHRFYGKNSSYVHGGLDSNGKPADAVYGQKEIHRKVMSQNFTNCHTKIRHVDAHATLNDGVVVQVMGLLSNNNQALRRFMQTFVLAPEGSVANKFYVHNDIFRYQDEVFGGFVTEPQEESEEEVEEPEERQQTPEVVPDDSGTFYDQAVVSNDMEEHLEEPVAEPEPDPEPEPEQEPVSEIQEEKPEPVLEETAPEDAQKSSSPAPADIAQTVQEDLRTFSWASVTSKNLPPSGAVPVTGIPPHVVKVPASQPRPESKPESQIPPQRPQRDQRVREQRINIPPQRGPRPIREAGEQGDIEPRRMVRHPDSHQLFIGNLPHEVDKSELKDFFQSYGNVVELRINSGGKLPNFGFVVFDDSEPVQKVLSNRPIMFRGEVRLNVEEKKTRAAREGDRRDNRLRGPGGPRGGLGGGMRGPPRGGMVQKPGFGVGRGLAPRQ
Shared flanks, not repeated: GGGAGUUCUACAGUCCGACGAUC … UGGAAUUCUCGGGUGUCAAGG
| Strand | log2 enrichment |
| --- | --- |
| AGUCCUGUGCUACACAUCGUAUGUACCGAAUCGGUUUUUGGUUUUUGGGGUUUUUGGAAAGUAUUAUGUUACGCCGUUCGGAUCUGCACU | -0.901 |
| CACAGACAACACGCACCCACACAGACACAGAGGGAAGGGGUUGGGAUGGGGACAGGGUGCACAGCAGGGCGGGGUAGAAACCCAGCCCCU | 0.584 |
| CCUCAAGUCCUGUGCUACACAUCGUAUGUACCGAAUCGGGGCGGGCGGGCGGGAAAGUAUUAUGUUACGCCGUUCGGAUCUGCACUUCCA | -0.528 |
| UGGGAGGUGGGUUUUGUUUAUUUUUUUAGCUCAUUUCCAGGGGUGGGAAUUUUUUUUUAAUAUGUGUCAUGAAUAAAGUUGUUUUUGAAA | -1.5 |
| UGGGAGGUGGAUUUUGAUUAUUUUUUUAGCUCAUUUCCAGGGGUGGGAAUUUUUUUUUAAUAUGUGUCAUGAAUAAAGUUGUUUUUGAAA | -0.99 |
| UCCUCAAGUCCUGUGCUACACAUCGUAUGUACCGAAUCGGUGGUGGUUUGGAAAGUAUUAUGUUACGCCGUUCGGAUCUGCACUUCCAGC | 0.555 |
| CCUGUGCUACACAUCGUAUGUACCGAAUCGGGAAAAAAGGGGAAAAAAGGGAAAAAAGGGGAAAGUAUUAUGUUACGCCGUUCGGAUCUG | 0.519 |
| UUUGCUUGCAGUAUCUGUUUCUCUUCCUAGGCUCAAGUUGGUGACCCAAGCCUAUUGUAAACAAGUGAUUAUCUCAAAGGGAGAUGCCAA | -0.94 |

Series 3 — technique: universal PBM; molecule type: double-stranded DNA, one strand shown; sample: in vitro; tested at: not given; direction: higher = stronger binding
Target: Sal-like protein 4, full length isoform B (SALL4, Homo sapiens, UniProt Q9UJQ4-2, residues 1-616)
Notes: 8-mer, flanks averaged, mean of replicates
| Strand | E-score |
| --- | --- |
| TAAATTAA | 0.328 |
| ATACAGTC | 0.169 |
| GGGCCAAA | -0.18 |
| CCCGTATA | 0.03 |
| GAAGCAGC | -0.169 |
| ACAGTCAG | -0.124 |
| ACCCTTAC | 0.0255 |
| ACCAAATC | -0.0526 |
| CAAATATG | 0.392 |
| GTTGGTTA | 0.0756 |
| GACACGTC | -0.189 |
| AGGGGAGC | -0.327 |
| GTCGTGTA | 0.0869 |
| GATAAGCA | 0.132 |
| GAATGGAC | -0.0209 |
| TGCTGACA | 0.0373 |
| ACAGACCG | -0.217 |
| TCTCGTAA | 0.168 |
| ATCATGTC | 0.0626 |
| ATCCATGA | -0.0286 |
| ACGGCCCG | -0.215 |
| TGACTTAA | 0.129 |
| AGCGTCCG | -0.266 |
| AAGTTCCC | -0.241 |

Series 4 — technique: RNA Bind-n-Seq; molecule type: RNA; sample: in vitro; tested at: 365 nM; baseline: no-protein control; direction: higher = stronger binding
Target: RNA binding protein fox-1 homolog 2, RRM domain, GST-SBP tag (RBFOX2, Homo sapiens, UniProt O43251-10, residues 100-194)
Notes: natural RNA segment, single round, ends assumed
Shared flanks, not repeated: GGGAGUUCUACAGUCCGACGAUC … UGGAAUUCUCGGGUGCCAA
Target sequence (chain): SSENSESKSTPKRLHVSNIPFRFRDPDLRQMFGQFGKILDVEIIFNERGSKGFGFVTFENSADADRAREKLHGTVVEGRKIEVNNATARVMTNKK
| Strand | RBNS enrichment (R) |
| --- | --- |
| AGUUAGCAUUGCUUUAAUGGACUGCAUUUGUCAUUAUCAAGUUACUCUUUCCUUUGUGAGCUGUUAAUCCACAAUUACUGACCAUACUAAUAGUAAGUGUGAUUUGAUUC | 0.387 |
| CUACAGGCCUAAGUUAUUGUUUGCAUAAAAAGAAUCAUGUUCCCUGUGUACAUUUAAGAAAAAAACAAAAAAACGGAAAUGUCAGAAUUGUAUGGAAAUAAAACUUGUUU | 0.512 |
| UGAACCGUGGUCAGUCUGUGAGCAGCGCCAGCUGCCUGCAGCCAGGGCCUUGAGCACUGGGGAGCUCUCAAGGUAUACUCUUAGAGUAACUAUAUACCUGUAACUGGACC | 0.179 |
| GGCAUUUACUAGCCAGAGCUCUGAAAGGCAGUGCUGUCUGUUUCUUGUACUGGGACCAAAGUAAAAAUCCAAGCACAUUCCCCUUGCAGUUAGGGGAGGCCCUACUGCCU | 0.374 |
| UAGAAUUGAAACAACUGUGUCUUAGACAUUUGUUUGAAAAAGCUUCAUCAGGCCUUGGAGCAGUCACUGCUUUAUUCCGCAAAAAUUAUUUGGUAGGAAAUUUUUGGGAG | 0.529 |
| UACCAAGUACUGGAGAAAAAGCAUCAAGUUCUUAGCCCUUGUAGCUUCUACCCUAGUUUCCCAUCCUCUCUCUGUGGAGGCCAAACCAACUCUUUGCCAGCAGCCACAAC | 0.549 |
| AAGAUUUAGCUCACCCUUGAACUGUCCAAGUGCCCGCAGUCCCUAGACUCAUCCCCGUGGGCUAGGACAGGAGGCCACUAGUACUGAUGCCAAACCAGGCCUCCACCGAC | 0.637 |
| ACAUAACUAAGGAAUGCCUAACUAAUGGAAACUUAAGUUCCUUCUAGCCAUUAAAACAGAGAGAAGAUCAAUUUAGAUCCCGGAACACUGUAUUUGAAAAAUAAUCUUCC | 0.476 |

For quick reference, copied from above (series 1):
| Strand | fluorescence intensity [a.u.] |
| --- | --- |
| AAATTACTAAGTTGTACCGTGGGTGACGCCGTATGA | 5910 |
| GCGTTGCAGATCGCTCAGCTGACTTTGAAGCATCGC | 2600 |
| AAATTACTAAGTTACCACGTGTTTTACCCCGTATGA | 20000 |
| CACTTCACCAAACACAACGTGCTTTCCGTCCAAATG | 16700 |
| CTAGATGTCAAAAGGCTTGTGACAGTATGTGGAGAA | 4640 |
| CCGGTGTTACCCAAGCTCGTGTTTTCACTGGTAACA | 9990 |
